# Experimental data collected from several papers.
# Each numbered part is a random draw from the data of one study; scales do not carry over between parts. Substitutions count along the parent as printed.

# Sample 1 — method: protein binding microarray; molecule type: double-stranded DNA, one strand shown; sample: in vitro; tested at: not given; reference: not given; reading: higher = stronger binding
# Target: Histone acetyltransferase KAT6A, winged helix 1, GST fusion (KAT6A, Homo sapiens, UniProt Q92794, residues 1-85)
# Setting: 8-mer, flanks averaged, mean of 2 arrays, mostly near background
# Target sequence (chain): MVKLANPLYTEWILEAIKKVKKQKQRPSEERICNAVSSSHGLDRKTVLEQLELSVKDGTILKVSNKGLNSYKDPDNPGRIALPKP
Oligonucleotide,E-score
ATCGTATA,-0.104
TCATCCAA,-0.236
AGCTGAGA,-0.195
CACGAGCG,0.219
AGAGCACT,-0.22
ATTGTCGC,0.0873

# Sample 2 — target: CCNF, cyclin fold, Cln2 fusion (human); method: yeast growth competition, sequencing; sample: yeast; setting: strong parent motif; reference: not given; reading: higher = stronger binding
# Starting sequence: SGO1 docking peptide (human); PLAKRALKYTDEK; partner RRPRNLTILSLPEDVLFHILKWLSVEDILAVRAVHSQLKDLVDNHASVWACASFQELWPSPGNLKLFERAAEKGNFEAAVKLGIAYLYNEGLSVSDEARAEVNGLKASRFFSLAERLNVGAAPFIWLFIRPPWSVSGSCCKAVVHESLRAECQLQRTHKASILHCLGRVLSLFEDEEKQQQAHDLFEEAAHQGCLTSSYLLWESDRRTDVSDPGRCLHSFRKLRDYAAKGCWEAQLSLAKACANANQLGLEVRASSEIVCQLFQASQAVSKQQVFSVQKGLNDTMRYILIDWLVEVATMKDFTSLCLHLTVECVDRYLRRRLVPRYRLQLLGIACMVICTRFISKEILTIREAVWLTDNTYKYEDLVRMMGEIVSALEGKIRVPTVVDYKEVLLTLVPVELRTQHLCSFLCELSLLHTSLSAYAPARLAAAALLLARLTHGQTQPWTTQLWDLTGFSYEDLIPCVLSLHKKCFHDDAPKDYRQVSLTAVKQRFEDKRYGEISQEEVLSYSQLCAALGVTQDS
Substitution,normalised enrichment score
K4A,1.42
D11A,2.37
Y9A,0.434
L7A,0.392
K13A,4.57

# Sample 3 — method: RNA Bind-n-Seq; molecule type: RNA; sample: in vitro; tested at: 365 nM; reference: no-protein control; reading: higher = stronger binding
# Target: RNA binding protein fox-1 homolog 2, RRM domain, GST-SBP tag (RBFOX2, Homo sapiens, UniProt O43251-10, residues 100-194)
# Setting: natural RNA segment, single round, ends assumed
# Construct (chain): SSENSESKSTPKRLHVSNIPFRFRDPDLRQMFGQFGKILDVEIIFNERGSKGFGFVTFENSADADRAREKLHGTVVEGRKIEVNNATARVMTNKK
Oligonucleotide,RBNS enrichment (R)
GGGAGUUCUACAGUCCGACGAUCACUUCAGACAUGCAUCAGUAGGAAAUAACUUGAGAAAUUCAUAUGGUUAUGUUACAAAUUCAUAUUCUGUUACUACAGUAAACGUUAAGAGUUUUAAACAGUUAAGAUUGUGGAAUUCUCGGGUGCCAA,0.581
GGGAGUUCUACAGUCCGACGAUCGUGUCGUGGUUUAGCUCCUCGGUGGUGAGGCGUGCUUCUCCCUCCUGGUGGAGCCAGGCAGCAGGGCCUUCCUGACCAACAGCCAUGUCUGACCUUCCCACUGAGAAACAUGGAAUUCUCGGGUGCCAA,0.244
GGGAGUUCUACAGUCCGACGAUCACAGCCCUGCGCAGUGGGGCAGGGAGGGAGGGAGAAGCAAUGGUGCCCUUCCUGCUGGAGAGACAAGCAGCAGUAGCGCAGCGCCCGCCCGCCAUGUGCAGGAGCUGGCGUGGAAUUCUCGGGUGCCAA,1.44
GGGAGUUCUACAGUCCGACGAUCGCCCAGAGUUAAAGUUUCAGAAGAGACUUGUGCACAUAAGGGCUUCAUCUCAAGUGUAUUGCAGUAAUGGCUGAAUCGGGGUUAACAUCCCUUCCAGGCACAGCGAGUUGUGGAAUUCUCGGGUGCCAA,0.346
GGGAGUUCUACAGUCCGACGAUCUUCGAGGCCUGUGUCUGGUGGGAGACAAGGCUGUGUGUCUCUGUGUGUGUAAACAAACGUGCACGUGCUCGCACUUAGCUGCGCAGGCUUUCUGUGCAUGAACUAGAAAAUGGAAUUCUCGGGUGCCAA,1.45
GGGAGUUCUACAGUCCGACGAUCCCCAUUCACUGGGGUCAGGUGGCAGUUGACAUCUUGGUUAUAAGUAUGCAUGCAGGUAACAAGAGUGAAAGCAGAGCUGACAUUUGCCAGGCUUUCCUGGAGCAGGCCAGUGGAAUUCUCGGGUGCCAA,23.4
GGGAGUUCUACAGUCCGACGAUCCCUCUCUGCUCCCCUGCCUAGUGGGGUGGUAGUGGCUACCUCUCAGCCCCAAUAGUCCCUGCUCCUCUUAGAAUCUUCACCAAGUGGCAGGCCACCUCUGGGCAGGACCAUGGAAUUCUCGGGUGCCAA,0.331
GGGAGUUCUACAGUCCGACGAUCUCCACCGCCCUGGGAGGCAGCAGCUUCUUCGAGAAGGAUGGAGCCCCCUUCUGCCCCGAGUGCUACUUUGAGCGCUUCUCGCCAAGAUGUGGCUUCUGCAACCAGCCCAUUGGAAUUCUCGGGUGCCAA,0.376

# Further values, each from its own experiment
Molecule,target,assay,test system,setting,how to read,quantity,value
"PhoQ, residues 284 288 289 292 302 303 ALSMDL","PhoP, residues 12 14 15 18 19 SEGLL (Escherichia coli, UniProt P23836)","Sort-seq, measured: YFP reporter",E. coli,"PhoQ-PhoP variant library, with: 10 µM Mg2+","reference: high Mg2+ state, higher = stronger signaling",fold induction,7.13

# Some of these lines once more (sample 1):
Oligonucleotide,E-score
ATCGTATA,-0.104
AGCTGAGA,-0.195
ATTGTCGC,0.0873
